{"data": "Experimental data pooled from the literature", "note": "Every numbered part comes from another study and shows a few of its results, in no order. “And” joins repeats or separate records; there may be more than shown.", "chain of UniProt Q02763 (whole entry, looked up)": "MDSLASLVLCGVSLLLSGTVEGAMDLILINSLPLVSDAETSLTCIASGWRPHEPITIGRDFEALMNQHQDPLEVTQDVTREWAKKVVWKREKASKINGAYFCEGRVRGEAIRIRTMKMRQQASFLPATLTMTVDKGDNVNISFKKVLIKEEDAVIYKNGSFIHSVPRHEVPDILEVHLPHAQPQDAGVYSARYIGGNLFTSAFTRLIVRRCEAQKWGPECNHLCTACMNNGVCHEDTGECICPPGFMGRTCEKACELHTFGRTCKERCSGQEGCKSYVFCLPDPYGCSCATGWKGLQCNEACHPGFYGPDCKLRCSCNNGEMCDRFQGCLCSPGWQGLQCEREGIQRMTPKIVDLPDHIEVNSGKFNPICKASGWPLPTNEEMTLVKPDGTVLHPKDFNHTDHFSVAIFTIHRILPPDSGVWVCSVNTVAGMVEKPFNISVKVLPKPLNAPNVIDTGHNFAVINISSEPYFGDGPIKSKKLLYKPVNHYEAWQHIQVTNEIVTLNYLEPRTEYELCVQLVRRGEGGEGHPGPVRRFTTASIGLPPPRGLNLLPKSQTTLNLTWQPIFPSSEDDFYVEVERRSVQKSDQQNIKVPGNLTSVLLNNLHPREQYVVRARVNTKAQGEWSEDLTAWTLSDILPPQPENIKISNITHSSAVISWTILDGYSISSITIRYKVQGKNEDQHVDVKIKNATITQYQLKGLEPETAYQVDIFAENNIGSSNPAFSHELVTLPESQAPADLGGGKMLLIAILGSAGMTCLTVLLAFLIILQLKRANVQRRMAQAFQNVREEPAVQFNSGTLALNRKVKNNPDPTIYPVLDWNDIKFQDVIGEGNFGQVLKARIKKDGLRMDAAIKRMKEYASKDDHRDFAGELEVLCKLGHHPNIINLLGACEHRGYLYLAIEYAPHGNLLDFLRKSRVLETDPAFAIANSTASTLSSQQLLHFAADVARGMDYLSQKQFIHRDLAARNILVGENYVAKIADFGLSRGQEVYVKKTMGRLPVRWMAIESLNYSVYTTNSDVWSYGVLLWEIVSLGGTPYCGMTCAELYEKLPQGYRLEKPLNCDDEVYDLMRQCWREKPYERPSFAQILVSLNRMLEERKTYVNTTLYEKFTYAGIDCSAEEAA", "chain of UniProt P49840 (whole entry, looked up)": "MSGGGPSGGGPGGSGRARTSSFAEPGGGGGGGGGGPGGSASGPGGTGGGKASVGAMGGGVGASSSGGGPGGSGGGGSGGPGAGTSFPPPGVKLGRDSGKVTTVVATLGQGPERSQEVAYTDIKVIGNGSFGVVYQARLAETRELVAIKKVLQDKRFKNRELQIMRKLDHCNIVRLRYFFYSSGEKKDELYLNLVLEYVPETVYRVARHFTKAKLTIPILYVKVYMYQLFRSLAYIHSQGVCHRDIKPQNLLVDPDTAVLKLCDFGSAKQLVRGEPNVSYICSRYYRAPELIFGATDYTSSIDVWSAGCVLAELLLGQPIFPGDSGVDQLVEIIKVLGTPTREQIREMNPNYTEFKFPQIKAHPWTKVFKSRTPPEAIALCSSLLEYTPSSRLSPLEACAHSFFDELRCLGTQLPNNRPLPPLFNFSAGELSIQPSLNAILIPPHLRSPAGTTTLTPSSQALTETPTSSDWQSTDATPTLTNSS", "chain of UniProt P31152 (whole entry, looked up)": "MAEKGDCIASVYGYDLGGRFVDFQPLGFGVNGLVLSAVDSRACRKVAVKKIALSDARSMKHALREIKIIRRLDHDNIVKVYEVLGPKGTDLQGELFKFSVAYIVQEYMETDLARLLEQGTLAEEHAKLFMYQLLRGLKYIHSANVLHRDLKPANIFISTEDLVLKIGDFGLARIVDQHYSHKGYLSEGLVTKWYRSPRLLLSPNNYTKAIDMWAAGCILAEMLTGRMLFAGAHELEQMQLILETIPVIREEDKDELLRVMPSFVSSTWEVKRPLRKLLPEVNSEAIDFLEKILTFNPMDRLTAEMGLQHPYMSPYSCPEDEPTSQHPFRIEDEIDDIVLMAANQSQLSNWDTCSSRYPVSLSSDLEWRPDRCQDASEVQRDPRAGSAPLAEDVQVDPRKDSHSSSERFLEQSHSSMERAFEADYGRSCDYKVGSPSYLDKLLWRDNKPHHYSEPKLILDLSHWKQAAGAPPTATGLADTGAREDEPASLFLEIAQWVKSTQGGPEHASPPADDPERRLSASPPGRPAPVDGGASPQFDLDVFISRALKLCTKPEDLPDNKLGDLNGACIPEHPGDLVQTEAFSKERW", "chain of UniProt Q00535 (whole entry, looked up)": "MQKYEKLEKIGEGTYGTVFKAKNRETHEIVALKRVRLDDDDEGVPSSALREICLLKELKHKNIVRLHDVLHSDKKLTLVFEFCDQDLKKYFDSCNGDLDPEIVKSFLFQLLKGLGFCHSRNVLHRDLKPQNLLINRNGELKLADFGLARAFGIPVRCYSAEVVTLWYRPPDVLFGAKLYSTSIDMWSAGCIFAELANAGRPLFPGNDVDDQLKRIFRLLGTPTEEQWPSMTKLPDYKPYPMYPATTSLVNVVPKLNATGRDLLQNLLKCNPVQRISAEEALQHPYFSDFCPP"}
{"data": "Series 1", "SMILES": "c1ccc(Oc2ccc(Nc3c4c(nc5ccccc35)CCC4)cc2)cc1", "organism": "Leishmania donovani", "strain": "DD8"}
{"assay": "parasite viability, resazurin", "test system": "promastigotes", "conditions": "0.33 µM", "inhibition": "30% and 19% and 24% and 34% and 20%"}
{"assay": "parasite killing", "test system": "intracellular amastigotes", "conditions": "0.4 µM, 96 h", "inhibition": "53% and 52% and 54%"}
{"assay": "parasite killing", "test system": "intracellular amastigotes", "conditions": "20 µM, 24 h", "inhibition": "105% and 100%"}
{"data": "Series 2", "organism": "Sarcocystis neurona", "read-out": "parasite growth", "concentration": "concentration not given", "notes": "first screen", "reference": "untreated"}
{"Compound": "Nc1nc(=O)[nH]cc1F", "log2 fold change": 0.25}
{"Compound": "COc1cc(OC)c(C(=O)CCCN2CCCC2)c(OC)c1.Cl", "log2 fold change": -0.1}
{"Compound": "O=C(O)c1cc2ccccc2c(Cc2c(O)c(C(=O)O)cc3ccccc23)c1O.OCCOCCN1CCN(C(c2ccccc2)c2ccc(Cl)cc2)CC1", "log2 fold change": 0.21}
{"Compound": "O=C(N[C@H](CO)[C@H](O)c1ccc([N+](=O)[O-])cc1)C(Cl)Cl", "log2 fold change": -0.16}
{"data": "Series 3", "host": "human", "medium": "microsomes or S9", "concentration": "2 µM", "time": "0.5 h"}
{"Structure (SMILES)": "OC(CNc1ncnc2nc[nH]c12)c1ccc2ccccc2c1 (stereo not drawn)", "remaining compound [%]": 78.6}
{"Structure (SMILES)": "NC1=NN(c2ccc(Oc3ccccc3)c(S(=O)(=O)O)c2)C(=O)C1", "remaining compound [%]": "> 100"}
{"Structure (SMILES)": "Cn1ncc2c1NC(=O)CC2c1cc(Cl)cc2c1OCOC2 (stereo not drawn)", "remaining compound [%]": 40.1}
{"Structure (SMILES)": "CCC(=O)OC(COC)c1ccccc1CS(N)(=O)=O (stereo not drawn)", "remaining compound [%]": 80.1}
{"Structure (SMILES)": "CCC(C(=O)N(C)C)N(c1ccc(C)c(C)c1)S(C)(=O)=O (stereo not drawn)", "remaining compound [%]": 74.2}
{"data": "Series 4", "Compound": "CS(=O)(=O)NCC[C@H](NC(=O)c1cncc2c1cnn2-c1ccc(F)cc1)c1ccnc(S(C)(=O)=O)c1", "concentration": "1 µM"}
{"target": "Tyrosine-protein kinase ABL1, non-phosphorylated (ABL1, Homo sapiens, UniProt P00519, T315I)", "assay": "cell-free assay, competition with immobilised ligand", "remaining binding [%]": 93}
{"target": "TEK (Homo sapiens, UniProt Q02763)", "assay": "cell-free assay, competition with immobilised ligand", "remaining binding [%]": 84}
{"target": "MATK (Homo sapiens, UniProt P42679)", "assay": "cell-free assay, competition with immobilised ligand", "remaining binding [%]": 100}
{"target": "CDK5 (Homo sapiens, UniProt Q00535)", "assay": "cell-free assay, competition with immobilised ligand", "remaining binding [%]": 100}
{"target": "MERTK (Homo sapiens, UniProt Q12866)", "assay": "cell-free assay, competition with immobilised ligand", "remaining binding [%]": 100}
{"target": "FLT3 (Homo sapiens, UniProt P36888, N841I)", "assay": "cell-free assay, competition with immobilised ligand", "remaining binding [%]": 91}
{"target": "STK35 (Homo sapiens, UniProt Q8TDR2)", "assay": "cell-free assay, competition with immobilised ligand", "remaining binding [%]": 100}
{"target": "MAPK4 (Homo sapiens, UniProt P31152)", "assay": "cell-free assay, competition with immobilised ligand", "remaining binding [%]": 100}
{"target": "FLT3 (Homo sapiens, UniProt P36888, R834Q)", "assay": "cell-free assay, competition with immobilised ligand", "remaining binding [%]": 79}
{"target": "FES (Homo sapiens, UniProt P07332)", "assay": "cell-free assay, competition with immobilised ligand", "remaining binding [%]": 100}
{"target": "MAPK6 (Homo sapiens, UniProt Q16659)", "assay": "cell-free assay, competition with immobilised ligand", "remaining binding [%]": 100}
{"target": "MAP4K1 (Homo sapiens, UniProt Q92918)", "assay": "cell-free assay, competition with immobilised ligand", "remaining binding [%]": 95}
{"target": "PRKACB (Homo sapiens, UniProt P22694)", "assay": "cell-free assay, competition with immobilised ligand", "remaining binding [%]": 100}
{"target": "STK38L (Homo sapiens, UniProt Q9Y2H1)", "assay": "binding, competition with immobilised ligand", "remaining binding [%]": 50}
{"target": "MAPK3 (Homo sapiens, UniProt P27361)", "assay": "cell-free assay, competition with immobilised ligand", "remaining binding [%]": 97}
{"target": "GSK3A (Homo sapiens, UniProt P49840)", "assay": "cell-free assay, competition with immobilised ligand", "remaining binding [%]": 100}
{"target": "Tyrosine-protein kinase ABL1, phosphorylated (ABL1, Homo sapiens, UniProt P00519, F317I)", "assay": "binding", "remaining binding [%]": 94}
{"target": "PIM1 (Homo sapiens, UniProt P11309)", "assay": "cell-free assay, competition with immobilised ligand", "remaining binding [%]": 96}
{"target": "PNCK (Homo sapiens, UniProt Q6P2M8)", "assay": "cell-free assay, competition with immobilised ligand", "remaining binding [%]": 85}
{"target": "BRAF (Homo sapiens, UniProt P15056, V600E)", "assay": "cell-free assay, competition with immobilised ligand", "remaining binding [%]": 100}
{"target": "PTK2 (Homo sapiens, UniProt Q05397)", "assay": "cell-free assay, competition with immobilised ligand", "remaining binding [%]": 93}
{"target": "CSNK2A1 (Homo sapiens, UniProt P68400)", "assay": "cell-free assay, competition with immobilised ligand", "remaining binding [%]": 100}
{"target": "PKMYT1 (Homo sapiens, UniProt Q99640)", "assay": "cell-free assay, competition with immobilised ligand", "remaining binding [%]": 84}
{"target": "LRRK2 (Homo sapiens, UniProt Q5S007, G2019S)", "assay": "cell-free assay, competition with immobilised ligand", "remaining binding [%]": 92}
{"target": "PIK3CB (Homo sapiens, UniProt P42338)", "assay": "cell-free assay, competition with immobilised ligand", "remaining binding [%]": 93}
{"data": "Series 5", "SMILES": "CC(C)(C)c1cnc(CSc2cnc(NC(=O)C3CCN(CCCCCSc4cccc5c4CN(C4CCC(=O)NC4=O)C5=O)CC3)s2)o1 (stereo not drawn)", "dose": "dose not given"}
{"test system": "NSG mouse, HuT78 xenograft", "conditions": "subcutaneous, day 0", "tumour volume": "0 mm³"}
{"test system": "NSG mouse, HuT78 xenograft", "conditions": "subcutaneous, day 2", "tumour volume": "55.3 mm³ and 19.7 mm³ and 45.6 mm³ and 21.4 mm³ and 32 mm³"}
{"test system": "NSG mice HuT78 xenograft", "conditions": "day 4", "tumour volume": "32 mm³ and 7.8 mm³ and 45.6 mm³ and 55.3 mm³"}
{"test system": "NSG mouse, HuT78 xenograft", "conditions": "intraperitoneal, day 14", "tumour volume": "129 mm³ and 113 mm³ and 162 mm³ and 98.3 mm³"}
{"data": "Series 6", "target": "DNA polymerase theta, ATPase domain (POLQ, Homo sapiens, UniProt O75417)", "read-out": "enzyme activity", "mode": "inhibitor", "concentration": "77 µM", "reference": "untreated", "chain of UniProt O75417 (whole entry, unmodified, looked up)": "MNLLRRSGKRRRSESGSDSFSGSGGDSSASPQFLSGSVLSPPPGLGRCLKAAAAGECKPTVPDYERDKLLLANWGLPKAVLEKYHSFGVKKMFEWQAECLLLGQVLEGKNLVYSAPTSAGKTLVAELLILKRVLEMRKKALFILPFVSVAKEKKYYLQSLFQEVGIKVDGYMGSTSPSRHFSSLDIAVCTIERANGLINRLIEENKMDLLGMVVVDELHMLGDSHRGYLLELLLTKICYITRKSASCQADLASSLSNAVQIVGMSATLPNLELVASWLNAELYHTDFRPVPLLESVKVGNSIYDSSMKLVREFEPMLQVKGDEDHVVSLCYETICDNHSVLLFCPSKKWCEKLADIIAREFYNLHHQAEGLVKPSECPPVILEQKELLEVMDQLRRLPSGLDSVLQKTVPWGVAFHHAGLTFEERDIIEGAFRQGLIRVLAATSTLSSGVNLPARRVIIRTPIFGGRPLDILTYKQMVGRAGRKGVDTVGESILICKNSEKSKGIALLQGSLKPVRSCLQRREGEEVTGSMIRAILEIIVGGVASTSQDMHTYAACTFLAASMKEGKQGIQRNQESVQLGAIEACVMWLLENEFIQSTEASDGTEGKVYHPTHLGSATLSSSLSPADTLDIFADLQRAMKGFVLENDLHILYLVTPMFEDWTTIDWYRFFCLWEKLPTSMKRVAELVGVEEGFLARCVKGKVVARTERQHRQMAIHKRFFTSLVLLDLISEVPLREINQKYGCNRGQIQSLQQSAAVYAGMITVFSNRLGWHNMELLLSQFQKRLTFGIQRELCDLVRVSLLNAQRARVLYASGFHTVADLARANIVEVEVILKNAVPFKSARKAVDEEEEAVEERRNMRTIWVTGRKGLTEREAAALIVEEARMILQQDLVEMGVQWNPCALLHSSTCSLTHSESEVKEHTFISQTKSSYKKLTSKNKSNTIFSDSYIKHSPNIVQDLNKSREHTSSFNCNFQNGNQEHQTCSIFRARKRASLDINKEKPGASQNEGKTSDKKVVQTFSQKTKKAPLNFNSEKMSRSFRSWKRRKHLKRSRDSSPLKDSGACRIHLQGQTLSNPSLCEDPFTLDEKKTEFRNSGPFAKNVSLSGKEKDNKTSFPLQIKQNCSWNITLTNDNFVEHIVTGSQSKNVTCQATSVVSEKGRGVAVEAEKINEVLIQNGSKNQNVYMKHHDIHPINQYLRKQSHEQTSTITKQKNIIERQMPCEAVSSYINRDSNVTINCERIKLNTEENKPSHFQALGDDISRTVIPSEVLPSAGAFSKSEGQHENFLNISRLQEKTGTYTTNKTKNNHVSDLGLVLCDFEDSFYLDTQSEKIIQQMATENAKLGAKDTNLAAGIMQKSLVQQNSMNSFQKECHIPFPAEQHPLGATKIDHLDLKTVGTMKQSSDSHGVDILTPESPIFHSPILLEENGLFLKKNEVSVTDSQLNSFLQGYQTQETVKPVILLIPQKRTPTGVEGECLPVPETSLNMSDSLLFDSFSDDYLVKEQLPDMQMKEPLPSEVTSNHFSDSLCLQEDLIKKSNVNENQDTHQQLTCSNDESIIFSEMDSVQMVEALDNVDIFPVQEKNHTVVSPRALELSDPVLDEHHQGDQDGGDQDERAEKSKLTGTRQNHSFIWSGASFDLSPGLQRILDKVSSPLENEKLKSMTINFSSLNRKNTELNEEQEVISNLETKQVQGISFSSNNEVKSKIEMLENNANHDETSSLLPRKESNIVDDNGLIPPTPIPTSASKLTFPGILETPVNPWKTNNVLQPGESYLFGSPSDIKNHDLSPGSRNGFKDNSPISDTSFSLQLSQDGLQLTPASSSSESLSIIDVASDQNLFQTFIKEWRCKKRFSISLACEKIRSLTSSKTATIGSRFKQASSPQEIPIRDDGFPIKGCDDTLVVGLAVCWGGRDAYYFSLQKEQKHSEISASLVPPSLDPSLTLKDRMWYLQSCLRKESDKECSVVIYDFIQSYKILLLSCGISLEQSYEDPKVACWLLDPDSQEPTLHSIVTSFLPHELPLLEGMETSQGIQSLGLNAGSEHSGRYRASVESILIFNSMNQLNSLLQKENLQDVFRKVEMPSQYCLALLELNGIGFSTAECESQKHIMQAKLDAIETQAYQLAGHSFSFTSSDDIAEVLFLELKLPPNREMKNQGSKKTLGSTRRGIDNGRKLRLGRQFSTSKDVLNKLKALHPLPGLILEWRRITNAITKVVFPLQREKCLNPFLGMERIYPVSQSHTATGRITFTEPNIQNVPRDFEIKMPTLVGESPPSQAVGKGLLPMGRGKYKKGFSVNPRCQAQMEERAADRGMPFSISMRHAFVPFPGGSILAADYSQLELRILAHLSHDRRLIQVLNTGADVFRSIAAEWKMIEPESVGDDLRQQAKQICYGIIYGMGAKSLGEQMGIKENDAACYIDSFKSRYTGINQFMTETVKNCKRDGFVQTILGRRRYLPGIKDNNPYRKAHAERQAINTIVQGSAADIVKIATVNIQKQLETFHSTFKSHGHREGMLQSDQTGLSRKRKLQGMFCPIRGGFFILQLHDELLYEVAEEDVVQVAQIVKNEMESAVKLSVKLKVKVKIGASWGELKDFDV"}
{"SMILES": "Nc1ccc(C(=O)O)c(O)c1", "remaining activity [%]": 95.6}
{"SMILES": "CCCCCCCCCCCCCCC[C@H](O)[C@H](N)CO (racemic)", "remaining activity [%]": 86}
{"SMILES": "O=C(NC1CCOCC1)c1ccc(-c2cc(-c3c[nH]nc3-c3ccccn3)ccn2)cc1", "remaining activity [%]": 100}
{"SMILES": "CN(CCOc1ccc(CC2SC(=O)NC2=O)cc1)c1ccccn1 (stereo not drawn)", "remaining activity [%]": 98.1}
{"data": "Series 7", "SMILES": "COc1ccc2[nH]c3c4[nH]c5ccc(OC)cc5c4c4c(c3c2c1)C(=O)NC4=O", "concentration": "1 µM"}
{"target": "Tyrosine-protein kinase JAK2, JH1 (JAK2, Homo sapiens, UniProt O60674)", "assay": "cell-free assay, competition with immobilised ligand", "remaining binding": "84%"}
{"target": "NTRK2 (Homo sapiens, UniProt Q16620)", "assay": "binding, competition with immobilised ligand", "remaining binding": "59%"}
{"target": "PIP4K2B (Homo sapiens, UniProt P78356)", "assay": "binding", "remaining binding": "100%"}
{"target": "EPHA4 (Homo sapiens, UniProt P54764)", "assay": "binding, competition with immobilised ligand", "remaining binding": "86%"}
{"target": "Non-receptor tyrosine-protein kinase TYK2, JH2 (TYK2, Homo sapiens, UniProt P29597)", "assay": "binding, competition with immobilised ligand", "remaining binding": "84%"}
{"data": "Series 8", "cell line": "mouse MPNST tumor cells", "technique": "high-content immunofluorescence imaging", "measured": "nuclear SOX9", "concentration": "10 µM", "time": "12 h", "notes": "mean of 2 replicates", "reference": "DMSO control", "direction": "higher = more nuclear SOX9"}
{"SMILES": "O=C(O)CCNc1cc(N2CCc3ccccc3CC2)nc(-c2cccnc2)n1", "nuclear SOX9 intensity": "100 % of DMSO"}
{"SMILES": "Nc1ccc(S(=O)(=O)Nc2cnc3ccccc3n2)cc1", "nuclear SOX9 intensity": "121 % of DMSO"}
{"SMILES": "O=C(NCCO)c1cccc(-c2cc(Nc3ccc(OC(F)(F)F)cc3)ncn2)c1", "nuclear SOX9 intensity": "162 % of DMSO"}
{"SMILES": "CC1Nc2ccc(Cl)cc2S(=O)(=O)N1 (stereo not drawn)", "nuclear SOX9 intensity": "96.8 % of DMSO"}
{"note": "Some of these lines once more (series 4):"}
{"target": "MAP4K1 (Homo sapiens, UniProt Q92918)", "assay": "cell-free assay, competition with immobilised ligand", "remaining binding [%]": 95}
{"target": "FLT3 (Homo sapiens, UniProt P36888, N841I)", "assay": "cell-free assay, competition with immobilised ligand", "remaining binding [%]": 91}
{"target": "MAPK3 (Homo sapiens, UniProt P27361)", "assay": "cell-free assay, competition with immobilised ligand", "remaining binding [%]": 97}
